Experimental data gathered from unrelated publications.
Every numbered part comes from another study and shows a few of its results, in no order.
Chain of UniProt Q99683 (whole entry, looked up): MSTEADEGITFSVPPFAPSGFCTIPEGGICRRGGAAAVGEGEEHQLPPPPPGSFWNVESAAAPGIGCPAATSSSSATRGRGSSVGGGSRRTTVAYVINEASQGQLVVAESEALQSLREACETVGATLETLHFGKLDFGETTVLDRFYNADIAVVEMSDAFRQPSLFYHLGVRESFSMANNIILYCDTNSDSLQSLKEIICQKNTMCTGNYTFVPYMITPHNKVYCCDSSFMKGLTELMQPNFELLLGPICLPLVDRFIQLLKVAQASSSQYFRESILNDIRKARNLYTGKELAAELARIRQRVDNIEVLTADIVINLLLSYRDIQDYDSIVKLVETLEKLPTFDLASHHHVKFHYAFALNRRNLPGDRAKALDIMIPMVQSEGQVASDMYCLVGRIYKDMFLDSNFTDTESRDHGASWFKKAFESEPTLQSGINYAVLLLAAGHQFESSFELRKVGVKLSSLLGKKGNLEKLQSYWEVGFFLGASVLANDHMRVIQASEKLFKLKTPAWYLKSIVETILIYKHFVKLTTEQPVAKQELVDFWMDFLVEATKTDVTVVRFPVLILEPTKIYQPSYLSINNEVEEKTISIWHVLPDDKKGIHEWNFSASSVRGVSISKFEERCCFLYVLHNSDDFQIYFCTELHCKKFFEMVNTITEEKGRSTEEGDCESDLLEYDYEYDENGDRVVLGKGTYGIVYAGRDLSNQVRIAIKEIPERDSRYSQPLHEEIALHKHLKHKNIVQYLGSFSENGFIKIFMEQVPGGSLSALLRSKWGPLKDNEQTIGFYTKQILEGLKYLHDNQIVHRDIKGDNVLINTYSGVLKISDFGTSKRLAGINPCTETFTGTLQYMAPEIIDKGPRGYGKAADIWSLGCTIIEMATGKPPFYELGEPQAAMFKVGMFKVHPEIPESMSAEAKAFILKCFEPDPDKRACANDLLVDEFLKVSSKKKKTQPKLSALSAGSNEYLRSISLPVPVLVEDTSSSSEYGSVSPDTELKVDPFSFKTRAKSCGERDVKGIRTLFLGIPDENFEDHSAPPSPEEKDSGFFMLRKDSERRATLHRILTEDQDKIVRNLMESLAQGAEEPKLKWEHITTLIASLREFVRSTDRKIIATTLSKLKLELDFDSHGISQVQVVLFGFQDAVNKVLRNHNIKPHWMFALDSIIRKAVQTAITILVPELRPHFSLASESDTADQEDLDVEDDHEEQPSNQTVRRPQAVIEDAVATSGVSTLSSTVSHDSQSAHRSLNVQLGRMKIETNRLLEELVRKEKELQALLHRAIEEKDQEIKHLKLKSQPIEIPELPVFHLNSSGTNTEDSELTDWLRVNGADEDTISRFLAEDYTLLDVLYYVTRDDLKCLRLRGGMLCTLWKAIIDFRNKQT
Chain of UniProt P41597 (whole entry, looked up): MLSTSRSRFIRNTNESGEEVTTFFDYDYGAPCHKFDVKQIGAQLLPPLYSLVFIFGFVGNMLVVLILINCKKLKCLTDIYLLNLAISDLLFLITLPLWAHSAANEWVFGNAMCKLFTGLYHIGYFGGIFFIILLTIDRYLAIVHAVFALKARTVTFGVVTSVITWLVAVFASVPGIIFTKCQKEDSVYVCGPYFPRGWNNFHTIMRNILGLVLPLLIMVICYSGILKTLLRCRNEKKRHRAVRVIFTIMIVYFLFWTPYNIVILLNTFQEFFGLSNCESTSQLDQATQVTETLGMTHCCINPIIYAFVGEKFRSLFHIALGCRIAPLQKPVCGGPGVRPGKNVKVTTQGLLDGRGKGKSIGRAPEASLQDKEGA
Chain of UniProt Q13258 (whole entry, looked up): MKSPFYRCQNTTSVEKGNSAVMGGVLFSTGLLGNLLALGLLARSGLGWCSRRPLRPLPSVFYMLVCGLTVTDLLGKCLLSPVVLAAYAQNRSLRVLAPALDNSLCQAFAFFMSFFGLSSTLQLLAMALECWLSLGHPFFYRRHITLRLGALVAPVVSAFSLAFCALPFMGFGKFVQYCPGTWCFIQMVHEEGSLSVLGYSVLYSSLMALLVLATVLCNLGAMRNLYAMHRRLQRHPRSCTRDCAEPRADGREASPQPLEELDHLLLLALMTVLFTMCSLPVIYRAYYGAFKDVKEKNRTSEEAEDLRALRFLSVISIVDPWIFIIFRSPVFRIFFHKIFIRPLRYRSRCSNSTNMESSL
Chain of UniProt Q96RI8 (whole entry, looked up): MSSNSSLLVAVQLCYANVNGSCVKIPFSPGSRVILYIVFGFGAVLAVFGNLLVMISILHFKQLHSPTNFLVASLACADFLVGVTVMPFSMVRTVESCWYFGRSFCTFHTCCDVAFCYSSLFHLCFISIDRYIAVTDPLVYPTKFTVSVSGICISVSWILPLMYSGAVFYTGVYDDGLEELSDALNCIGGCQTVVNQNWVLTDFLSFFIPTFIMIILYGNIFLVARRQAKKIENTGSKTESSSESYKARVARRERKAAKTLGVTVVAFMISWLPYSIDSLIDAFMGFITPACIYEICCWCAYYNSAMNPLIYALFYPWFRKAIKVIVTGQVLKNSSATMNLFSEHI
Chain of UniProt P50406 (whole entry, looked up): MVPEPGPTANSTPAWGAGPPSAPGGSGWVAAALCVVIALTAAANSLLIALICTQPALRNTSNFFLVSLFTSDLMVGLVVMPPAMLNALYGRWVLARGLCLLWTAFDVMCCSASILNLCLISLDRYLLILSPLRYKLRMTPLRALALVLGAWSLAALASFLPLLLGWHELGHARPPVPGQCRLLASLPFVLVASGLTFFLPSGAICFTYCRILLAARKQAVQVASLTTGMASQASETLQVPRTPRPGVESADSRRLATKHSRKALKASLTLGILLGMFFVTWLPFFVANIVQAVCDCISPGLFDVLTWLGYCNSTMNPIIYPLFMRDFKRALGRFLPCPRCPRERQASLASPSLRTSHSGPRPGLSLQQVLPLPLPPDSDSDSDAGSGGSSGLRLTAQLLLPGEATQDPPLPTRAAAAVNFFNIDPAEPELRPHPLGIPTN
Chain of UniProt P06239 (whole entry, looked up): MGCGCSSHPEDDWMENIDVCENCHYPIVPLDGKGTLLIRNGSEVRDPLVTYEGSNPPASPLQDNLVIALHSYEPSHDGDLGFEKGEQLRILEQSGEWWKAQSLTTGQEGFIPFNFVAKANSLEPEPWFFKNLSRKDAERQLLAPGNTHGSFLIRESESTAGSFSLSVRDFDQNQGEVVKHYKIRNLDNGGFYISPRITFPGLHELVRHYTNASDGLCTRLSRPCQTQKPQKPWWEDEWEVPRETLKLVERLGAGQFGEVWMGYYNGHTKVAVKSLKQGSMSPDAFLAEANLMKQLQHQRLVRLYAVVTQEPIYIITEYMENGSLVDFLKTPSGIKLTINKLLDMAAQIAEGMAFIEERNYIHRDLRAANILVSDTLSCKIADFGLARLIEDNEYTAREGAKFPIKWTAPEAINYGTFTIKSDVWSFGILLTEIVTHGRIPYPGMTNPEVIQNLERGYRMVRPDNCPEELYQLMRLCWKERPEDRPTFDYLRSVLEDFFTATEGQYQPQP
Chain of UniProt P16257 (whole entry, looked up): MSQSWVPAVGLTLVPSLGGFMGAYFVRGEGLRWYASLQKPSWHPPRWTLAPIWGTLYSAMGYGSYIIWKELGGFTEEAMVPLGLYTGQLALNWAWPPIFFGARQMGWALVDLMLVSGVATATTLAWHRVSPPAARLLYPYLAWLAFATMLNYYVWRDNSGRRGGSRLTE
Chain of UniProt P49137 (whole entry, looked up): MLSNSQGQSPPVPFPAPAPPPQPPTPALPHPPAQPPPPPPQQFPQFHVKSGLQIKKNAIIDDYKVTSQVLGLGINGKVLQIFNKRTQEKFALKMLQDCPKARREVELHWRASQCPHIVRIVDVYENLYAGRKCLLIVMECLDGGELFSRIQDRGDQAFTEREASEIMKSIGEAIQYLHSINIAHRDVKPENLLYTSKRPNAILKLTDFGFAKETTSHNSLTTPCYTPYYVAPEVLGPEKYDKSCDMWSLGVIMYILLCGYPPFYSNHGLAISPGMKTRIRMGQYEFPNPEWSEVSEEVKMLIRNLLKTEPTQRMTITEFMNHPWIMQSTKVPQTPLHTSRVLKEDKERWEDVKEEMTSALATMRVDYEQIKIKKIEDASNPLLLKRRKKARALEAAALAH
Chain of UniProt P36896 (whole entry, looked up): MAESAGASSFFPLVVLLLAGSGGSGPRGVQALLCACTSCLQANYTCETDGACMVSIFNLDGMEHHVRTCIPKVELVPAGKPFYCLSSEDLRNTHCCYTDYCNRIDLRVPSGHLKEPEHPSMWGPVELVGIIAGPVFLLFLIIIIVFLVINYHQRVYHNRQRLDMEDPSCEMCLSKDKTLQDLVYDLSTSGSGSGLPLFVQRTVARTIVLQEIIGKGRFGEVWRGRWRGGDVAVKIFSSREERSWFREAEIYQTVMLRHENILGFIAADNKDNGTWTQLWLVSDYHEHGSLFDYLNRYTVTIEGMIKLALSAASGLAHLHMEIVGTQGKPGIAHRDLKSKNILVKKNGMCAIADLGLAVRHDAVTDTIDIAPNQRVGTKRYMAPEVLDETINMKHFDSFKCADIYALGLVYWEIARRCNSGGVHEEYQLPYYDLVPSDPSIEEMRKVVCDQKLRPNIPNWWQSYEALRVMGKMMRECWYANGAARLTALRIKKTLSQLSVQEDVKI
Chain of UniProt P27361 (whole entry, looked up): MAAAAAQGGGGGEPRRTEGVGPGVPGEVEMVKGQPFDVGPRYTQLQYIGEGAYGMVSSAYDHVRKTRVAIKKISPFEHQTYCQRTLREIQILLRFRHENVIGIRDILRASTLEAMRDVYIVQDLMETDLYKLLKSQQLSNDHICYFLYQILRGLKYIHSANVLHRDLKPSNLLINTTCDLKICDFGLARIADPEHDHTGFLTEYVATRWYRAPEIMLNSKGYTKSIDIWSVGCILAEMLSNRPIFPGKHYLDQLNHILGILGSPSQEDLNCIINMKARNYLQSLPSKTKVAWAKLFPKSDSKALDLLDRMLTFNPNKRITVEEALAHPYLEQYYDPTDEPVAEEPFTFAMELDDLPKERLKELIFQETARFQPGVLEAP

Sample 1
Target: Diamine acetyltransferase 1 (Homo sapiens, UniProt P21673)
Action: inhibitor
Concentration: 10 µM
Relative to: control
Target sequence (P21673 1-171): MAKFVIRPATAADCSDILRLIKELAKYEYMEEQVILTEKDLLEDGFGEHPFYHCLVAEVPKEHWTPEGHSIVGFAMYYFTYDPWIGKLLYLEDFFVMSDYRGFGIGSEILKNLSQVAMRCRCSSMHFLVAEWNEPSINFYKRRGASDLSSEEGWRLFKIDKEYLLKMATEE
Compound | remaining activity [%]
C[C@@H]1O[C@@H](O[C@@H]2[C@@H](O)[C@H](OCCc3ccc(O)c(O)c3)O[C@H](CO[C@@H]3O[C@H](CO)[C@@H](O)[C@H](O)[C@H]3O)[C@H]2OC(=O)/C=C/c2ccc(O)c(O)c2)[C@H](O)[C@H](O)[C@H]1O | 102
COc1cc([C@H]2OC[C@H]3[C@@H]2CO[C@@H]3c2ccc(O)c(OC)c2)ccc1O | 92.7
OC[C@H]1O[C@@H](Oc2cc(O)cc(/C=C/c3ccc(O)cc3)c2)[C@H](O)[C@@H](O)[C@@H]1O | 92.8
CC(C)=CCc1cc2ccc(=O)oc2cc1O | 87.8
CC(C)=CCC/C(C)=C\CO | 100
COc1cc(O)ccc1/C=C/C(=O)c1ccc(O)cc1 | 96.1

Sample 2
SMILES: CC1=C(C#N)[C@@H](c2ccc3[nH]nc(C)c3c2)C(C#N)=C(c2ccc(Cl)cc2)N1
Concentration: 10 µM
target | effect on | method | inhibition [%]
HTR3A (Homo sapiens, UniProt P46098) | binding | radioligand binding | 2.6
Tspo (Rattus norvegicus, UniProt P16257) | radioligand binding | radioligand displacement | 69.6
HTR5A (Homo sapiens, UniProt P47898) | ligand displacement | – | 4.53

Sample 3
Compound: Nc1nccc(-c2c(-c3ccc(F)cc3)ncn2C2CCNCC2)n1
Effect on: enzyme activity
Action: inhibitor
Concentration: 0.5 µM
Relative to: control
target | remaining activity [%]
EPHA3 (Homo sapiens, UniProt P29320) | 97.4
MAPK3 (Homo sapiens, UniProt P27361) | 100
TBK1 (Homo sapiens, UniProt Q9UHD2) | 102
WEE1 (Homo sapiens, UniProt P30291) | 106
FGFR1 (Homo sapiens, UniProt P11362) | 91.2
ULK2 (Homo sapiens, UniProt Q8IYT8) | 113
RPS6KA2 (Homo sapiens, UniProt Q15349) | 99.3
MAP3K5 (Homo sapiens, UniProt Q99683) | 102
FGFR3 (Homo sapiens, UniProt P22607) | 100
MST1R (Homo sapiens, UniProt Q04912) | 100
MAPKAPK2 (Homo sapiens, UniProt P49137) | 97.6
LCK (Homo sapiens, UniProt P06239) | 80.1
CSNK1G2 (Homo sapiens, UniProt P78368) | 119
NEK6 (Homo sapiens, UniProt Q9HC98) | 104
ACVR1B (Homo sapiens, UniProt P36896) | 121

Sample 4
Structure (SMILES): CCN(c1nc(N)c(C(=O)N=C(N)N)nc1Cl)C(C)C
Effect on: β-arrestin recruitment
Action: agonist
Method: PRESTO-Tango
Concentration: 10 µM
Relative to: untreated
target | fold over basal
ADRB2 (Homo sapiens, UniProt P07550) | 0.79
Trace amine-associated receptor 6 (TAAR6, Homo sapiens, UniProt Q96RI8) | 0.84 fold
C-C chemokine receptor type 2, isoform B (CCR2, Homo sapiens, UniProt P41597) | 2.17
CXCR4 (Homo sapiens, UniProt P61073) | 0.69
PTGDR (Homo sapiens, UniProt Q13258) | 0.83
HTR6 (Homo sapiens, UniProt P50406) | 0.24
Galanin receptor type 3 (Homo sapiens, UniProt O60755) | 1.17 fold
